Measured values of several laboratories.
Every numbered part comes from another study and shows a few of its results, in no order.
Chain of UniProt P51817 (whole entry, looked up): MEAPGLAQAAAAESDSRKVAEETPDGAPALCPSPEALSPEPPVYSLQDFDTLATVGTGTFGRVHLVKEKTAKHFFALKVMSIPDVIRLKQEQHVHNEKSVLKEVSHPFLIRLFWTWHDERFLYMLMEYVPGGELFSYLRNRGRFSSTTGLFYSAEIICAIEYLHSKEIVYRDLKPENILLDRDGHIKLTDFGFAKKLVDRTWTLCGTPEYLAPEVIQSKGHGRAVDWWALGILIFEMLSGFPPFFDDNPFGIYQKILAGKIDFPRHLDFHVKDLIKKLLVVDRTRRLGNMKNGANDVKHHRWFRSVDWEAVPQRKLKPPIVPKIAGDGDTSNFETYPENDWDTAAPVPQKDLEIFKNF
Chain of UniProt P53667 (whole entry, looked up): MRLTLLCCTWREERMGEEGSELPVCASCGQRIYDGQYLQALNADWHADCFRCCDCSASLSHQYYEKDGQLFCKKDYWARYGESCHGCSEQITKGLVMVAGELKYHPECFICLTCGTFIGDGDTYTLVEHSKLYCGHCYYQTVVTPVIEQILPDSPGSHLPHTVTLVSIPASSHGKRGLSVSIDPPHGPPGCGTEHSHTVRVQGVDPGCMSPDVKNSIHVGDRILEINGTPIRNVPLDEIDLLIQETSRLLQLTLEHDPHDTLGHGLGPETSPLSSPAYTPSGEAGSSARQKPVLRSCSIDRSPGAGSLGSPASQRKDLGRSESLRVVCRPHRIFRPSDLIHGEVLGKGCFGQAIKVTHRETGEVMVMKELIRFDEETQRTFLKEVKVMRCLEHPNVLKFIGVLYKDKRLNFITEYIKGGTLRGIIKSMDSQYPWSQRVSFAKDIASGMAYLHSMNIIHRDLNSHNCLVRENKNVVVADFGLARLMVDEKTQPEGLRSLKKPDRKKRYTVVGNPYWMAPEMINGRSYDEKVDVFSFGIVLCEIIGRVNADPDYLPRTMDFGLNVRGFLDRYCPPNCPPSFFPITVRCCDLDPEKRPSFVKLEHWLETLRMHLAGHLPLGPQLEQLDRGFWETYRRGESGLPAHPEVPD
Chain of UniProt P09769 (whole entry, looked up): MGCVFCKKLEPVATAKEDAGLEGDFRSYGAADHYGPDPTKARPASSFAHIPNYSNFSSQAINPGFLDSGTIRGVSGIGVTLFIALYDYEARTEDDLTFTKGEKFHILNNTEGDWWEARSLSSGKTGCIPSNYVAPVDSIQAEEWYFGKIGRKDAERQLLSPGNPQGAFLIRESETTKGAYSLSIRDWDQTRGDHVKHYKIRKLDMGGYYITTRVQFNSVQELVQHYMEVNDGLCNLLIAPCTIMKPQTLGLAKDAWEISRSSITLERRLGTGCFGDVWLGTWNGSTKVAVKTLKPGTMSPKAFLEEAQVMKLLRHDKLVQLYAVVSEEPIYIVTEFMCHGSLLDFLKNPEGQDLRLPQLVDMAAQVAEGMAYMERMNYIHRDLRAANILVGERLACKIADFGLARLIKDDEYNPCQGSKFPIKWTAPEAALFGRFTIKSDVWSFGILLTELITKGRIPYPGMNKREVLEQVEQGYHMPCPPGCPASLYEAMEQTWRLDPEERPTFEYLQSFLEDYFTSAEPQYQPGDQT
Chain of UniProt P16591 (whole entry, looked up): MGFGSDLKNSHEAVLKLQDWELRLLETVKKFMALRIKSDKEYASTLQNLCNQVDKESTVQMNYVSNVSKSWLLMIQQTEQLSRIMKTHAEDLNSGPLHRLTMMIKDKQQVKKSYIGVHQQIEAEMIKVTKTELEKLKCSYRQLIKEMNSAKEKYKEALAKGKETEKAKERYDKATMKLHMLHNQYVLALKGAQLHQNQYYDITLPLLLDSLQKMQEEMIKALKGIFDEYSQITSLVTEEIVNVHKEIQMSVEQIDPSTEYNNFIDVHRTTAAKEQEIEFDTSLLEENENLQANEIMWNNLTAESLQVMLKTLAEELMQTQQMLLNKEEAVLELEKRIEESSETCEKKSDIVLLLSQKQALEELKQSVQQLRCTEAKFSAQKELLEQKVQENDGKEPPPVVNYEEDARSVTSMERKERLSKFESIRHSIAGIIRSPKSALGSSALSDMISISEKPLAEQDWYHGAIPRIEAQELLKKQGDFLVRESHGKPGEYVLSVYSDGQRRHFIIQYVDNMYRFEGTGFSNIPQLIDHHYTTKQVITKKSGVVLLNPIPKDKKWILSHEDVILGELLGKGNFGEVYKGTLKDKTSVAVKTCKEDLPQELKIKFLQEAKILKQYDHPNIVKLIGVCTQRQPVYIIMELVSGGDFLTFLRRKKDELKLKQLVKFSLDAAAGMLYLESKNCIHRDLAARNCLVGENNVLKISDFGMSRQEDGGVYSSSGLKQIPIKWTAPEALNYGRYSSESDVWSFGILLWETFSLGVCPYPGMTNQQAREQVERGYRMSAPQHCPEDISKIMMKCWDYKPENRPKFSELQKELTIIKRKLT
Chain of UniProt P27448 (whole entry, looked up): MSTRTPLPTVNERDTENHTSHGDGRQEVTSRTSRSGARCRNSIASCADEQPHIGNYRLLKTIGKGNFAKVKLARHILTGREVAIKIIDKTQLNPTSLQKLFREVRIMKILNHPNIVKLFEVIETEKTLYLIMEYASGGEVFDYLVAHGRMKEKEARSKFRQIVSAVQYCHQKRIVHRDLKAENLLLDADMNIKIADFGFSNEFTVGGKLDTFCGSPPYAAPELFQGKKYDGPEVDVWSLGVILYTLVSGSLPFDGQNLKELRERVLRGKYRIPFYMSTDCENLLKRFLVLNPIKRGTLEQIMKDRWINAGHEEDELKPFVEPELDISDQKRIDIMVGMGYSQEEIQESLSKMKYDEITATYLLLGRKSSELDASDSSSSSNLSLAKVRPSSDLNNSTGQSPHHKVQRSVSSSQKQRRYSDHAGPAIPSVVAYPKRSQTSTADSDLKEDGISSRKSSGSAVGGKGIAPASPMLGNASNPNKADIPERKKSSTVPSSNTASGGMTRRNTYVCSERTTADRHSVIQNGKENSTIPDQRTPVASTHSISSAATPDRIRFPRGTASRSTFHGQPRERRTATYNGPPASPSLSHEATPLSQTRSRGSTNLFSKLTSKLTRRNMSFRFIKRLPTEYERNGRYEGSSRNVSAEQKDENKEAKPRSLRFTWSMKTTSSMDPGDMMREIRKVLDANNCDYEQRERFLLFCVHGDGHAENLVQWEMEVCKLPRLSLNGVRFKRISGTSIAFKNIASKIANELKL
Chain of UniProt Q00526 (whole entry, looked up): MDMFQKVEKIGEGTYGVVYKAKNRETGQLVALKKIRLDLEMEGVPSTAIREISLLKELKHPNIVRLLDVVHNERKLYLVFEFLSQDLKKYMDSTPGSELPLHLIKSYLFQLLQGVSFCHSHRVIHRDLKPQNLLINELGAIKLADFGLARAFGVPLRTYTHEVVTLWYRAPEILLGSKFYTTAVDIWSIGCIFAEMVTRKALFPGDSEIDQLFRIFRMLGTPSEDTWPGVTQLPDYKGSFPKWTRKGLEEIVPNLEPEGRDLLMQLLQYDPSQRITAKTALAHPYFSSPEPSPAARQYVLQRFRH
Chain of UniProt Q9H2K8 (whole entry, looked up): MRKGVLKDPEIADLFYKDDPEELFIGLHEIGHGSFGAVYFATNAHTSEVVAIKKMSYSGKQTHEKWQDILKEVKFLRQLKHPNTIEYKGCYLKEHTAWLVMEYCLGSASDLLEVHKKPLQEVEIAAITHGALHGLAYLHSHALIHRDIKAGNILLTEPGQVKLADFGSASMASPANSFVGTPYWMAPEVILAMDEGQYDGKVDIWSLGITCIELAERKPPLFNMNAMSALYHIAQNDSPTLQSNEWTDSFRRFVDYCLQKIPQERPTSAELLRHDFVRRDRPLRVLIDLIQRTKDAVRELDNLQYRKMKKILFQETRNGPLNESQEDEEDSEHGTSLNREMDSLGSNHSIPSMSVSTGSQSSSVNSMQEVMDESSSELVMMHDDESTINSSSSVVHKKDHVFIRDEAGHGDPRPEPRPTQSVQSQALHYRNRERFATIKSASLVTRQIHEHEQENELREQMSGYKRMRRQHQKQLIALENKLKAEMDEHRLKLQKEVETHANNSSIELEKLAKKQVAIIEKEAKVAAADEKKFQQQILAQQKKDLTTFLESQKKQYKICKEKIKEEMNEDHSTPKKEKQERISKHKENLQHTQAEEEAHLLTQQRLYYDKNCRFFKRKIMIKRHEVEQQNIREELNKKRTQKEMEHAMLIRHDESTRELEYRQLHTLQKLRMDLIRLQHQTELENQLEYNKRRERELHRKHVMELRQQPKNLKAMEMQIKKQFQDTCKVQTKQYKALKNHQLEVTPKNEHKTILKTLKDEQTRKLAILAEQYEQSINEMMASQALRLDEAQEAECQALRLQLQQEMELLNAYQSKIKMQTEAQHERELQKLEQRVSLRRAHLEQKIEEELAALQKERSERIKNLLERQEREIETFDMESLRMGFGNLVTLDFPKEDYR

Sample 1
Organism: Sarcocystis neurona
Read-out: parasite activity
Tested at: 10 µM
Time: 96 h
| SMILES | activity class |
| --- | --- |
| O=C(O)CCNC(=O)c1ccc(/N=N/c2ccc(O)c(C(=O)O)c2)cc1 | inactive |
| c1ccc(-c2ccc(C(c3ccccc3)n3ccnc3)cc2)cc1 (stereo not drawn) | inactive |
| CC(=O)O[C@@]12CO[C@@H]1C[C@H](O)[C@@]1(C)C(=O)[C@H](O)C3=C(C)[C@@H](OC(=O)[C@H](O)[C@@H](NC(=O)OC(C)(C)C)c4ccccc4)C[C@@](O)([C@@H](OC(=O)c4ccccc4)[C@H]21)C3(C)C | inactive |
| CC(=O)OCC(=O)[C@@]12OC3(CCCC3)O[C@@H]1C[C@H]1[C@@H]3CCC4=CC(=O)C=C[C@]4(C)[C@@]3(F)[C@@H](O)C[C@@]12C | inactive |
| CN(C)CC[C@@H](c1ccc(Cl)cc1)c1ccccn1 | inactive |
| c1cnc(N2CCN(Cc3ccc4c(c3)OCO4)CC2)nc1 | inactive |
| COc1ccc2[nH]c([S+]([O-])Cc3ncc(C)c(OC)c3C)nc2c1 (stereo not drawn) | inactive |

Sample 2
Structure (SMILES): O=C(c1cc2cc(O)ccc2[nH]1)c1cc2cc(O)ccc2[nH]1
Read-out: enzyme activity
Action: inhibitor
Tested at: 0.5 µM
Relative to: control
| target | remaining activity |
| --- | --- |
| MATK (Homo sapiens, UniProt P42679) | 93.3% |
| TAOK3 (Homo sapiens, UniProt Q9H2K8) | 66.6% |
| PKN1 (Homo sapiens, UniProt Q16512) | 76.3% |
| FYN (Homo sapiens, UniProt P06241) | 28.8% |
| PASK (Homo sapiens, UniProt Q96RG2) | 78.7% |
| AKT1 (Homo sapiens, UniProt P31749) | 98.2% |
| MARK3 (Homo sapiens, UniProt P27448) | 84.4% |
| FLT4 (Homo sapiens, UniProt P35916) | 67.1% |
| NEK11 (Homo sapiens, UniProt Q8NG66) | 96.7% |
| Cyclin-dependent kinase 3, with cyclin E (CDK3, Homo sapiens, UniProt Q00526) | 85.2% |
| FGR (Homo sapiens, UniProt P09769) | 12.7% |
| CDC42BPA (Homo sapiens, UniProt Q5VT25) | 90.2% |
| HIPK1 (Homo sapiens, UniProt Q86Z02) | 94.3% |
| SRC (Homo sapiens, UniProt P12931) | 36.4% |
| FER (Homo sapiens, UniProt P16591) | 86.5% |
| ITK (Homo sapiens, UniProt Q08881) | 77.7% |
| LIM domain kinase 1 (LIMK1, Homo sapiens, UniProt P53667) | 87.9% |
| ALK (Homo sapiens, UniProt Q9UM73) | 97% |
| STK25 (Homo sapiens, UniProt O00506) | 105% |
| NLK (Homo sapiens, UniProt Q9UBE8) | 83.2% |
| PRKX (Homo sapiens, UniProt P51817) | 94.5% |

Sample 3
SMILES: CC(C)n1cnc(-c2ccc(F)cc2)c1-c1ncc(C(=O)Nc2ccc(N3CCN(C)CC3)cc2)[nH]1
Method: phase 2a trial
| host | route | dose | notes | patients with TEAE |
| --- | --- | --- | --- | --- |
| idiopathic pulmonary fibrosis patients | oral | 30 mg once daily | GLDH increased, grade 1 | 0% |
| patients with idiopathic pulmonary fibrosis |  | 60 mg once daily | free thyroxine decreased, grade 3 | 0% |
| idiopathic pulmonary fibrosis patients | oral | dose not given | CK-MB increased, grade 4, all arms | 0% |
| idiopathic pulmonary fibrosis patients | oral | dose not given | CK-MB increased, grade 1, all arms | 1% |
| patients with idiopathic pulmonary fibrosis |  | 60 mg once daily | skin papilloma, maximum intensity grade 4 | 0% |
| idiopathic pulmonary fibrosis patients | oral | 30 mg once daily | disc protrusion, grade 2 | 0% |
| idiopathic pulmonary fibrosis patients | oral | dose not given | urine red cells, grade 1, all arms | 1% |
| idiopathic pulmonary fibrosis patients | oral | 60 mg once daily | ESR increased, grade 2 | 0% |
| idiopathic pulmonary fibrosis patients | oral | 30 mg once daily | urine red cells, grade 5 | 0% |
| idiopathic pulmonary fibrosis patients | oral | 30 mg once daily | musculoskeletal disorders, grade 1 | 0% |
| idiopathic pulmonary fibrosis patients | oral | 60 mg once daily | CK-MB increased, grade 5 | 0% |

Sample 4
Host: mouse
Medium: microsomes or S9
Tested at: 2 µM
Time: 0.5 h
| SMILES | remaining compound |
| --- | --- |
| Cc1nn(C)cc1-c1c2c(=O)[nH]n(C(C)C)c2nc2[nH]c(=O)n(C)c12 | > 100% |
| O=C(Nc1ccccc1Cl)NC1(C(=O)N2CCC(O)CC2)CCCCC1 | 81.6% |
| Cc1[nH]c(=O)[nH]c(=O)c1S(=O)(=O)NCC(Cc1ccccc1F)c1ccccc1 (stereo not drawn) | > 100% |
| Cc1cc(C)cc(C(=O)c2c(C(C)C)c(=O)[nH]c(=O)n2Cc2ccnc(N)c2)c1 | 17.4% |
| CCn1nc(-c2cc(C)ccc2Cl)nc1N(C)C | 0.14% |
| CCOC(=O)Cn1ccc2cc(N3C(=O)N4CCCC4(C)C3=O)ccc21 (stereo not drawn) | > 100% |
| CN(C(=O)CN1CC[C@@H]2OCc3cnnn3[C@H]2C1)c1ccccc1 | 78.2% |
| Cn1nccc1-c1ccnc2nc(Cc3ccc4c(c3)CCC(C)(C)O4)nn12 | 6.96% |
| O=C(NC1(c2nnc[nH]2)CCC1)c1cncc(F)c1 | 97.1% |
